Assay results gathered from unrelated publications.
A part holds a random share of what one study measured.
Sequence of UniProt O75116 (whole entry, looked up): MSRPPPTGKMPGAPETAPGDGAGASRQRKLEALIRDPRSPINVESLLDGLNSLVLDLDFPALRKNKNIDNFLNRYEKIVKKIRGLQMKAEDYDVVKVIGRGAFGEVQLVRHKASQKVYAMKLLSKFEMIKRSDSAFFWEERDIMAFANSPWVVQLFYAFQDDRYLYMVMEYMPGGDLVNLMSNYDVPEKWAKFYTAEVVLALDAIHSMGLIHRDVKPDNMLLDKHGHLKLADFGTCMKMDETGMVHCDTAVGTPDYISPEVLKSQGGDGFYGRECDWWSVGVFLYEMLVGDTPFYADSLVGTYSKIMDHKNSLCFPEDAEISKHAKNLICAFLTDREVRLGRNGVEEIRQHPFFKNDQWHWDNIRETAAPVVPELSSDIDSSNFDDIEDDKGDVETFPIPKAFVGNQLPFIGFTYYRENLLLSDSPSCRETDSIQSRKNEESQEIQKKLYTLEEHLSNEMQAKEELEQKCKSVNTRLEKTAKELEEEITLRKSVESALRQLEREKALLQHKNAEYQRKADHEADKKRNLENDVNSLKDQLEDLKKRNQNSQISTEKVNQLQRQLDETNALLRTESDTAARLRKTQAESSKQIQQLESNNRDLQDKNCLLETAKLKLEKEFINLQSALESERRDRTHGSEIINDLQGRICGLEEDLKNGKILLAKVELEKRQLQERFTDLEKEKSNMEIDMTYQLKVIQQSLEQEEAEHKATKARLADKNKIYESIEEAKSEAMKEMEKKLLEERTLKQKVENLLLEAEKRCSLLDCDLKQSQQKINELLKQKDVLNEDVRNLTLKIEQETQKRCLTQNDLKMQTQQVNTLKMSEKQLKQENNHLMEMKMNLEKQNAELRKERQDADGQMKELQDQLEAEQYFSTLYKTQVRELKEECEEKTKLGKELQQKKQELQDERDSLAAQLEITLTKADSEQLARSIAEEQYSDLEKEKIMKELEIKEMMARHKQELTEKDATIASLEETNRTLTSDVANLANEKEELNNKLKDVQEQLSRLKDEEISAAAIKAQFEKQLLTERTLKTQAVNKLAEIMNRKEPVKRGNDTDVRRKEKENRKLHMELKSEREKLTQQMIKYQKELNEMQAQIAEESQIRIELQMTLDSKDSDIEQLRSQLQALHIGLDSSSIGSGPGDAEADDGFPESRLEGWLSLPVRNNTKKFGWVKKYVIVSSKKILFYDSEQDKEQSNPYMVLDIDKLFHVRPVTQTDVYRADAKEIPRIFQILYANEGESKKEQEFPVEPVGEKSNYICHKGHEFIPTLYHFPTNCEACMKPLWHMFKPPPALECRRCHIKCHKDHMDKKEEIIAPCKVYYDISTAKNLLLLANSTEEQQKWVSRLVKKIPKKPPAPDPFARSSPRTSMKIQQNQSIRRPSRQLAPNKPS
Sequence of UniProt Q9H422 (whole entry, looked up): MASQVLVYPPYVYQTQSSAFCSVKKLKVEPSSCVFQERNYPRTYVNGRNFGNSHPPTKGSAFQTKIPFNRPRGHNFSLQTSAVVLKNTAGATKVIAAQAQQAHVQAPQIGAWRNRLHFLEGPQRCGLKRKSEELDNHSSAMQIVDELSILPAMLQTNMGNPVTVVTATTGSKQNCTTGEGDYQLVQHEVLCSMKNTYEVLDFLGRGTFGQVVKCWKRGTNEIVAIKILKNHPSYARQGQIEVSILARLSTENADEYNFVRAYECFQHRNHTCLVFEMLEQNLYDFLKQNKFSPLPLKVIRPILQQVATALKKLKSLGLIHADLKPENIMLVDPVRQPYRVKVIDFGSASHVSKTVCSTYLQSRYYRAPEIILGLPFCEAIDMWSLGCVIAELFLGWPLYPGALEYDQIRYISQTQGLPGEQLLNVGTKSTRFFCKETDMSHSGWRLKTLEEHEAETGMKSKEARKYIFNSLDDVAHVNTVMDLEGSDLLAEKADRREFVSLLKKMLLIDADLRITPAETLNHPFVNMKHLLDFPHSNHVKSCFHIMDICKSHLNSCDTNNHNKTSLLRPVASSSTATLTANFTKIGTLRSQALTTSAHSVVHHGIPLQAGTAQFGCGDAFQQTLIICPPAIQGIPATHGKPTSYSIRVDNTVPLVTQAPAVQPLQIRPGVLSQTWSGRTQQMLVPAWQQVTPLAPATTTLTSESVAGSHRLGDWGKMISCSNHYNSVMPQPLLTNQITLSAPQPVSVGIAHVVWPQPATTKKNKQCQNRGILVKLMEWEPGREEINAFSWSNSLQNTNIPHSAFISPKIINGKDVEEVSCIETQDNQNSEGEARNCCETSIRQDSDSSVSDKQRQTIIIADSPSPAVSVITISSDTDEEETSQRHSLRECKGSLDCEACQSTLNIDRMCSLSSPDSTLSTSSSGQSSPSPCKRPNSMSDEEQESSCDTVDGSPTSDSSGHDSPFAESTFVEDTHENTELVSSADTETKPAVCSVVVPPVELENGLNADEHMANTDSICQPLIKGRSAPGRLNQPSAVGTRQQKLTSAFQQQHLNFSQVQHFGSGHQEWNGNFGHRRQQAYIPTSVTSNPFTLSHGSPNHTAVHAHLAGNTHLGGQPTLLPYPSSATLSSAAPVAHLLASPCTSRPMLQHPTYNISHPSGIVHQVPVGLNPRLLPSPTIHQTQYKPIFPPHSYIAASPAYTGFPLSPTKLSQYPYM
Sequence of UniProt Q9NR20 (whole entry, looked up): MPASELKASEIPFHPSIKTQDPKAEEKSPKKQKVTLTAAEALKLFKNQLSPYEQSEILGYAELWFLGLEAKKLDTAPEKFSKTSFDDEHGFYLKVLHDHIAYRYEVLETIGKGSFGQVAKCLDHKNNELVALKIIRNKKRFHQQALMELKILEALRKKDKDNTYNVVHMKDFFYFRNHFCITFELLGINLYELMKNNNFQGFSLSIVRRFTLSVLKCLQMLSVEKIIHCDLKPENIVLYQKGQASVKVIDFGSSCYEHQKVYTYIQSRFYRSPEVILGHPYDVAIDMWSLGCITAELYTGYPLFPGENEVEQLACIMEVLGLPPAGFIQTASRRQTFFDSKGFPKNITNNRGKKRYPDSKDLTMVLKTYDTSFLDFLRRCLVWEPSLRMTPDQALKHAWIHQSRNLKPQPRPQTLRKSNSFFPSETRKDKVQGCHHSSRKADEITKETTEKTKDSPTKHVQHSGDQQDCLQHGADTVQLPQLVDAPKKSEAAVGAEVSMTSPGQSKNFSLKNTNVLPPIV
Sequence of UniProt P53779 (whole entry, looked up): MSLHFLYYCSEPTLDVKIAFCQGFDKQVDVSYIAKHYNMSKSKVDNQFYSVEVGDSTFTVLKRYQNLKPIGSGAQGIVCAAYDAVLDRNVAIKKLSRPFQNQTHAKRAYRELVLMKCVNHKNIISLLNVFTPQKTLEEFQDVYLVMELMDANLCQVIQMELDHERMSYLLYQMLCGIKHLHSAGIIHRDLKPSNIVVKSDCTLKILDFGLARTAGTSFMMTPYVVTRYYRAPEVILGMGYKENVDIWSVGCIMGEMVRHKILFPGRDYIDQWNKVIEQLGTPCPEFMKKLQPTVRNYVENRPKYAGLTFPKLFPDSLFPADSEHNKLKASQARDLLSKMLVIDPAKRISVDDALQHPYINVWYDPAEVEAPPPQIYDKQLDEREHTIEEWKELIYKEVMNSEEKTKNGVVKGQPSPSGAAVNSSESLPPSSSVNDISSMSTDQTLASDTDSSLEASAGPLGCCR

Sample 1 — observed: enzyme activity; mode: inhibitor; concentration: 0.5 µM; relative to: control
SMILES: COC[C@H]1OC(=O)c2coc3c2[C@@]1(C)C1=C(C3=O)[C@@H]2CCC(=O)[C@@]2(C)C[C@H]1OC(C)=O
target | remaining activity [%]
SLK (Homo sapiens, UniProt Q9H2G2) | 94.1
EGFR (Homo sapiens, UniProt P00533) | 97
HIPK3 (Homo sapiens, UniProt Q9H422) | 103
DYRK4 (Homo sapiens, UniProt Q9NR20) | 102
Cyclin-dependent kinase 2, with cyclin A (CDK2, Homo sapiens, UniProt P24941) | 93.5
ROS1 (Homo sapiens, UniProt P08922) | 100
MAP3K8 (Homo sapiens, UniProt P41279) | 108
PKN2 (Homo sapiens, UniProt Q16513) | 98.5
PTK2B (Homo sapiens, UniProt Q14289) | 86.3
NEK9 (Homo sapiens, UniProt Q8TD19) | 92.3
NTRK3 (Homo sapiens, UniProt Q16288) | 87.8
MAPK10 (Homo sapiens, UniProt P53779) | 96.8
ROCK2 (Homo sapiens, UniProt O75116) | 88.2

Sample 2 — species: mouse C57BL/6J male; relative to: vehicle
SMILES: CN1CC[C@]23c4c5ccc(O)c4O[C@H]2[C@@H](O)C=C[C@H]3[C@H]1C5
setting | respiration rate [%]
10 mg/kg, 120 min | 176
10 mg/kg, 40 min | 80
30 mg/kg, 20 min | 47
30 mg/kg, 120 min | 87
30 mg/kg, 100 min | 84
30 mg/kg, 80 min | 66
10 mg/kg, 60 min | 87
10 mg/kg, 100 min | 150

Sample 3 — cell line: HEK-293T; observed: pseudovirus infection; technique: FDA-approved drug library counter-screen; organism: VSV pseudotyped with VSV-G; concentration: 10 µM; time: 16 h; relative to: vehicle-treated
SMILES | GFP-positive cells [%]
CCOC(=O)[C@H](CCc1ccccc1)N[C@H]1CCc2ccccc2N(CC(=O)O)C1=O | 104
CN1C(C(=O)Nc2ccccn2)=C(O)c2ccccc2S1(=O)=O | 81.8
O=C(NC1CCN(CCCCC2(C(=O)NCC(F)(F)F)c3ccccc3-c3ccccc32)CC1)c1ccccc1-c1ccc(C(F)(F)F)cc1 | 69
CN(C)c1ccc(C(=C2C=CC(=[N+](C)C)C=C2)c2ccc(N(C)C)cc2)cc1 | 15.1
CCCCC(=O)N(Cc1ccc(-c2ccccc2-c2nnn[nH]2)cc1)[C@H](C(=O)O)C(C)C | 112
C[C@H](CCC(=O)O)[C@H]1CC[C@H]2[C@@H]3[C@@H](O)C[C@@H]4C[C@H](O)CC[C@]4(C)[C@H]3CC[C@]12C | 118
COc1cc2nc(N3CCN(C(=O)C4COc5ccccc5O4)CC3)nc(N)c2cc1OC (stereo not drawn) | 94.5
CN1CCCC(n2nc(Cc3ccc(Cl)cc3)c3ccccc3c2=O)CC1 (stereo not drawn) | 102
CN(C)/N=N/c1[nH]cnc1C(N)=O | 107
Nc1nc(NC2CC2)c2ncn([C@H]3C=C[C@@H](CO)C3)c2n1 | 112
Cc1cc(C)nc(NS(=O)(=O)c2ccc(N)cc2)n1 | 83.9
CC1=C(C/C=C(\C)CCC[C@H](C)CCC[C@H](C)CCCC(C)C)C(=O)c2ccccc2C1=O | 121
CC(C)NCC(O)COc1cccc2[nH]ccc12 (stereo not drawn) | 84.5
Nc1ccc(S(=O)(=O)Nc2nccs2)cc1 | 98.6
COc1ccccc1OCCNCC(O)COc1cccc2[nH]c3ccccc3c12 (stereo not drawn) | 115
CC=CC(=O)N(CC)c1ccccc1C (mixture of isomers) | 120
CCCCCCCC(=O)N[C@H](CN1CCCC1)[C@H](O)c1ccc2c(c1)OCCO2 | 124
Nc1nc(Cl)nc2c1ncn2[C@@H]1O[C@H](CO)[C@@H](O)[C@@H]1F | 92.4
Cc1cn([C@@H]2C[C@@H](O)[C@H](CO)O2)c(=O)[nH]c1=O | 110
Oc1c(Cl)cc(Cl)c2cccnc12 | 45.4

Mixed results
Compound | target | assay | setting | measurement | value
COc1cc(-c2cn(C3CCc4ccccc4N(CC(F)(F)F)C3=O)nn2)ccc1-n1ccc(C)n1 (stereo not drawn) | Serine/threonine-protein kinase PknB (pknB, Mycobacterium tuberculosis, UniProt P9WI81) | cell-free assay, competition with immobilised ligand | 1 µM | remaining binding | 78%

Excerpt of the above (sample 3):
SMILES | GFP-positive cells [%]
CC1=C(C/C=C(\C)CCC[C@H](C)CCC[C@H](C)CCCC(C)C)C(=O)c2ccccc2C1=O | 121
CC(C)NCC(O)COc1cccc2[nH]ccc12 (stereo not drawn) | 84.5
